Measured values of several laboratories.
A part holds a random share of what one study measured. Values joined by “and” are separate records of one study, mostly repeats; a detail may differ.
UniProt P48729, sequence (whole entry, looked up): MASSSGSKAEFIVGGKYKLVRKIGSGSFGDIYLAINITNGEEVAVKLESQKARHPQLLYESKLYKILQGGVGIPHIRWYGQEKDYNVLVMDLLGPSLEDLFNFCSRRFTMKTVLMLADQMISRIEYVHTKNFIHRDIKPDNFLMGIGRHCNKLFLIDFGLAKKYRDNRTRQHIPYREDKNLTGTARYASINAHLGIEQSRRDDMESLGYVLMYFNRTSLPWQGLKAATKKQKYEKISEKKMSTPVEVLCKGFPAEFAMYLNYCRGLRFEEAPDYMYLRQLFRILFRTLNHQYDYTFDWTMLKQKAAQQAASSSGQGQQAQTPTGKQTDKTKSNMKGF

Set 1
SMILES: C[C@@H]1CN(c2ccc(-c3cc(C(=O)NCCOCCOCCOCCOCCOCCOCCNC(=O)/C=C/c4[nH]cc(C(=O)N[C@@H](CC(N)=O)c5ccc(F)c(Cl)c5)c4-c4ccc(Cl)cc4F)ccc3F)cc2NC(=O)c2ccc(F)cc2C(F)(F)F)C[C@H](C)N1C
Read-out: thermal unfolding
Method: differential scanning fluorimetry
Concentration: 5.5 µM
Direction: higher = more unfolded
Measurement: SYPRO Orange fluorescence
WDR5: WD repeat-containing protein 5 (WDR5, Homo sapiens, UniProt P61964)
DCAF1: DDB1- and CUL4-associated factor 1 (DCAF1, Homo sapiens, UniProt Q9Y4B6)
UniProt Q9Y4B6, sequence (whole entry, looked up): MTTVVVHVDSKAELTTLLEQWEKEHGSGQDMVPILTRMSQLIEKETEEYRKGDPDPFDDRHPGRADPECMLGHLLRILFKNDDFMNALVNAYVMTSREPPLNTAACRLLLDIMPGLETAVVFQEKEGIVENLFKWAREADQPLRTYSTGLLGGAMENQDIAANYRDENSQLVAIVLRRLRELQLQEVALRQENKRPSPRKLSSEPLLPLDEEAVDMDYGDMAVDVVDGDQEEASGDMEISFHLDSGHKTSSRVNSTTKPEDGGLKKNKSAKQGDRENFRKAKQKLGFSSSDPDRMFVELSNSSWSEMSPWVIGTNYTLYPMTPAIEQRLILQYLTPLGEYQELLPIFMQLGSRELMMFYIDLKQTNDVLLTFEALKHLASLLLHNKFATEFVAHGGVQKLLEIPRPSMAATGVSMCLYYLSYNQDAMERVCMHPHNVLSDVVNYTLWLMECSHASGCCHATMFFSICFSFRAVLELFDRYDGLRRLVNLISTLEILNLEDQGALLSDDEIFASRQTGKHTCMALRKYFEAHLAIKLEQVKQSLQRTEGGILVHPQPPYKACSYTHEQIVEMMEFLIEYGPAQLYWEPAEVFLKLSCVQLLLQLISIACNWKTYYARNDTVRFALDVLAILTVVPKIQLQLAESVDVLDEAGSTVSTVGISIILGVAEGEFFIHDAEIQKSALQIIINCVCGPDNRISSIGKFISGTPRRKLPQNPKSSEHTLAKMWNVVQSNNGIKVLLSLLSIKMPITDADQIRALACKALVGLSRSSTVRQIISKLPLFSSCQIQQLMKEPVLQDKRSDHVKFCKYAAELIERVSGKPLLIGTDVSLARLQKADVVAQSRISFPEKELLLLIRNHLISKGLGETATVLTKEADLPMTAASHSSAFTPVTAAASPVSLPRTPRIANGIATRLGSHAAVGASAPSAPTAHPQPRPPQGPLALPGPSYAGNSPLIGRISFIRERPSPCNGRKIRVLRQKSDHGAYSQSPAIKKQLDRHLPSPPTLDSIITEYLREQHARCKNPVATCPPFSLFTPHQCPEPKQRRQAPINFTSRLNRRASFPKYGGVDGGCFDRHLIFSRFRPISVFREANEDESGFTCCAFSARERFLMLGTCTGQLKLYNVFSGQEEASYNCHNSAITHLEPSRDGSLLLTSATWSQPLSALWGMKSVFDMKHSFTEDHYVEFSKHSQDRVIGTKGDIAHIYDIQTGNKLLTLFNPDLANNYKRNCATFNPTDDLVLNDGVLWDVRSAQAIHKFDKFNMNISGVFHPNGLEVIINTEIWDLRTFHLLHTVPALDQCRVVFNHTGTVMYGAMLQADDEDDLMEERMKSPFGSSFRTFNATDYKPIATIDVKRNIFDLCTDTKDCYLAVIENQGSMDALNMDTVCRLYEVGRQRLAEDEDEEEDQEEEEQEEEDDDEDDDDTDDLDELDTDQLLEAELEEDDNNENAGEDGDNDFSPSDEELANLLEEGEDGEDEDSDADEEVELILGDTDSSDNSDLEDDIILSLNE
WDR5; 32.8 °C: 13800 a.u.
WDR5; 64.41 °C: 15800 a.u.
DCAF1; 79.41 °C: 40300 a.u.
WDR5; 59.61 °C: 15500 a.u.
DCAF1; 61.61 °C: 51900 a.u.
WDR5; 54.41 °C: 16900 a.u.
WDR5; 74.81 °C: 47900 a.u.

Set 2
Target: Cyclin-dependent kinase 12, with cyclin K (CDK12, Homo sapiens, UniProt Q9NYV4)
UniProt Q9NYV4, sequence (whole entry, looked up): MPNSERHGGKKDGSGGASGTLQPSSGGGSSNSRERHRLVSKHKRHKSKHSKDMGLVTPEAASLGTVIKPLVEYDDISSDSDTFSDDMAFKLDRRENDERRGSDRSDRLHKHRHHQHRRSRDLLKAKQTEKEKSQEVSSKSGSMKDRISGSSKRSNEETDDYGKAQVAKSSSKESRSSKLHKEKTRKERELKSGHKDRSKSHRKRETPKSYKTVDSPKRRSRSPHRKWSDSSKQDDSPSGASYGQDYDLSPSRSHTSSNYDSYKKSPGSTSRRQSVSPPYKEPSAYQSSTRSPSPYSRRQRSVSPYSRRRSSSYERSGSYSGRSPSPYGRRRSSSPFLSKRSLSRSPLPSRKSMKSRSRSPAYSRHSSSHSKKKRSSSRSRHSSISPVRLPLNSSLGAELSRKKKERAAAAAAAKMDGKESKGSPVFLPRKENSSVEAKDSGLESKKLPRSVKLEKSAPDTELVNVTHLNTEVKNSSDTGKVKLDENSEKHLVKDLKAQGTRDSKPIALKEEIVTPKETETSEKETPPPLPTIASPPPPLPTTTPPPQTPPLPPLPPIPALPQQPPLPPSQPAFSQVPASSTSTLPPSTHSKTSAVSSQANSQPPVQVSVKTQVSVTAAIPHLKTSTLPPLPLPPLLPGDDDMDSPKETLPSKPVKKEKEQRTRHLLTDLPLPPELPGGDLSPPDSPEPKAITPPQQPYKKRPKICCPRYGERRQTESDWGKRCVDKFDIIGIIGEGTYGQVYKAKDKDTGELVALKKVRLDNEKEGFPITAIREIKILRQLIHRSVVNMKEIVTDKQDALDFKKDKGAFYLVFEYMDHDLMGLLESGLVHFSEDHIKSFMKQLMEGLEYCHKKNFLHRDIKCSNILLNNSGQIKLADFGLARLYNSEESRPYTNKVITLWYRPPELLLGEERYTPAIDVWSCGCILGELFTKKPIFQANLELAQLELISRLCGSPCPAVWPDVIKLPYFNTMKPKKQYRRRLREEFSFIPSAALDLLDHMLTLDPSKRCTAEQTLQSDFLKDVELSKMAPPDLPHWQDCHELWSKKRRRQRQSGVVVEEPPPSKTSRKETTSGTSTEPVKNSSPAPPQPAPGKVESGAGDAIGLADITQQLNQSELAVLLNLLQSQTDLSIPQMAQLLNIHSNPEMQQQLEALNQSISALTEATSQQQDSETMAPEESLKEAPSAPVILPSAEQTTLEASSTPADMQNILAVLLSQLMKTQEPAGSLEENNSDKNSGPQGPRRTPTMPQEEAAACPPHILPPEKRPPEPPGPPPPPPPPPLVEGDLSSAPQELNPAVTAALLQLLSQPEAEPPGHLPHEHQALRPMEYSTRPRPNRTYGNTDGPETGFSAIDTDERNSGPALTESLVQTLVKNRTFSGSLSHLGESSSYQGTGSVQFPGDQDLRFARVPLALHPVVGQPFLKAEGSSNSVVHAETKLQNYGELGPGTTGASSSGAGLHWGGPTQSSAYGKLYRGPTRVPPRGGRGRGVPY
Read-out: kinase activity
Action: inhibitor
Method: ADP-Glo
Concentration: 0.0247 µM
Measurement: inhibition
CCn1cnc2c(NCc3nc4cc(Cl)c(Cl)cc4[nH]3)nc(N3CCC(NC(C)=O)CC3)nc21: 14.6%
CC(=O)N1CCN(c2nc(NCc3nc4cc(Cl)c(Cl)cc4[nH]3)c3ncn(-c4cnn(C)c4)c3n2)CC1: 8.8%
CCn1cnc2c(NCc3nc4ccc(F)c(F)c4[nH]3)nc(N3CCn4ncnc4C3)nc21: 17.6%
CCn1cnc2c(NCc3nc4cc(Cl)c(Cl)cc4[nH]3)nc(N3CCn4ncnc4C3)nc21: 34.9%
CCCCOc1nc(NCc2nc3cc(Cl)c(Cl)cc3[nH]2)c2ncn(CC)c2n1: 10.6%
CCn1cnc2c(NCc3nc4cc(Cl)c(Cl)cc4[nH]3)nc(N3CCN(C(=O)CNC(C)=O)CC3)nc21: 25.7%
CCn1cnc2c(NCc3nc4cc(Cl)c(Cl)cc4[nH]3)nc(N3CCN(Cc4ccncc4)CC3)nc21: -8.1%
CCn1cnc2c(NCc3nc4cc(Cl)c(Cl)cc4[nH]3)nc(N3CCN(C(=O)c4ccccc4)CC3)nc21: 26.2%
CC(=O)N1CCN(c2nc(NCc3nc4cc(Cl)c(Cl)cc4[nH]3)c3ncn(C)c3n2)CC1: -1.1%
CC(=O)N1CCN(c2nc(NCc3nc4cc(Cl)c(Cl)cc4[nH]3)c3ncn(C(C)C)c3n2)CC1: -3.3%

Set 3
Structure (SMILES): Cc1cc2c([nH]1)c(=O)[nH]c(=S)n2Cc1cccc(OC/C(=C/F)CN)c1
Measurement: inhibition
AOC3: Amine oxidase [copper-containing] 3 (AOC3, Homo sapiens, UniProt Q16853)
UniProt Q16853, sequence (whole entry, looked up): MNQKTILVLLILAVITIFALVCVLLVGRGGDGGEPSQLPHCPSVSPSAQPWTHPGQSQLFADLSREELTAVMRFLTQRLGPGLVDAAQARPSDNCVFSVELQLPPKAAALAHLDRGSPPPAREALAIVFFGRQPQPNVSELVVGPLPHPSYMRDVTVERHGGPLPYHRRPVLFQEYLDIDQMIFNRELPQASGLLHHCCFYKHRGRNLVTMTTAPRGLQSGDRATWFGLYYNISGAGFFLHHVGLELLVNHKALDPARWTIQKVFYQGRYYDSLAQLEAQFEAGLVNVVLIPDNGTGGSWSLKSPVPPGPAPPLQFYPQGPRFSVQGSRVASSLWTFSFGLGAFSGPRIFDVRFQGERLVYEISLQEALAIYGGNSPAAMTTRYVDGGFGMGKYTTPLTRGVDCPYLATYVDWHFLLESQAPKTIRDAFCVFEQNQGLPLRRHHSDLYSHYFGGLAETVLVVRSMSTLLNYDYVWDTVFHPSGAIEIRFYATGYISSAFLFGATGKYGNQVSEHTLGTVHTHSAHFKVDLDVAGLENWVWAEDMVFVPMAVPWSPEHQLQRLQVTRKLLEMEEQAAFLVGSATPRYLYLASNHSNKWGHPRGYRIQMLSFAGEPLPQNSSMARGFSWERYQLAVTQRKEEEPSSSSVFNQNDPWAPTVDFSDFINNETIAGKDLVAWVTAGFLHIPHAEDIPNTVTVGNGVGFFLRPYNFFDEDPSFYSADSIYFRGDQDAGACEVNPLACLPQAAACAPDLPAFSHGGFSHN
MPO: Myeloperoxidase (MPO, Homo sapiens, UniProt P05164)
UniProt P05164, sequence (whole entry, looked up): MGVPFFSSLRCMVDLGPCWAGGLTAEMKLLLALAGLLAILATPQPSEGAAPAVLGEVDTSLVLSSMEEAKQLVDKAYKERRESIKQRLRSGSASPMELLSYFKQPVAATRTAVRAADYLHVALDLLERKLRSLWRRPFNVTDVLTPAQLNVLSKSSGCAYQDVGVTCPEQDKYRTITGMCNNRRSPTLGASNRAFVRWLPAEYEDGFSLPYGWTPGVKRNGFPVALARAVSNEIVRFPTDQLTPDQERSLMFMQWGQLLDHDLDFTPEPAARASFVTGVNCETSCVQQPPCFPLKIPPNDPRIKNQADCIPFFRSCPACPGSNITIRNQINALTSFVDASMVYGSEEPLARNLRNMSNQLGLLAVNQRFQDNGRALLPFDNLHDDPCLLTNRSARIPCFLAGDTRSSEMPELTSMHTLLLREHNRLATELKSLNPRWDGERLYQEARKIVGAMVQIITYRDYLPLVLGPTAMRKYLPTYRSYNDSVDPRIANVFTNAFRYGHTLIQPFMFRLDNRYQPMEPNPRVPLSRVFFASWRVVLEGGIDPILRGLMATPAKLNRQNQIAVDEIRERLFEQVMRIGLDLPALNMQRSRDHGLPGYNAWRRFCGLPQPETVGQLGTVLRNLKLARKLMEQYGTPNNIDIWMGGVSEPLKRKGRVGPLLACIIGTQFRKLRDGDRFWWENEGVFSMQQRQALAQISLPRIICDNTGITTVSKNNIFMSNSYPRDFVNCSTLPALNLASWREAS
AOC3; enzyme activity, inhibitor, fluorescence; 13.7 nM: 30.3% and 24.2%
AOC3; enzyme activity, inhibitor, fluorescence; 1.111 µM: 98.8% and 98.9%
MPO; enzyme activity, inhibitor, fluorescence; 300 pM: -0.5% and -6.04% and 3.42%
MPO; Amplex Red; 0.0206 µM: 7.42% and -1.88% and 3.98%
AOC3; enzyme activity, inhibitor, fluorescence; 0.1235 µM: 89.3% and 88.4%
MPO; enzyme activity, inhibitor, fluorescence; 15 µM: 96.1% and 94% and 96%
AOC3; enzyme activity, inhibitor, fluorescence; 30 µM: 99.9% and 100%
AOC3; enzyme activity, inhibitor, fluorescence; 10 µM: 100% and 99.8%

Set 4
Compound: CC[C@@]1(c2cccc(-c3c(F)cncc3OC)c2)C2=C(Nc3n[nH]cc31)[C@H](F)C(C)(C)CC2=O (single isomer, unassigned)
Concentration: 1 µM
Measurement: remaining binding
Serine/threonine-protein kinase PAK 3 (PAK3, Homo sapiens, UniProt O75914); binding, competition with immobilised ligand: 72%
Tyrosine-protein kinase ABL1, non-phosphorylated (ABL1, Homo sapiens, UniProt P00519, F317I); binding, competition with immobilised ligand: 81%
Aurora kinase A (AURKA, Homo sapiens, UniProt O14965); binding, competition with immobilised ligand: 65%
BDNF/NT-3 growth factors receptor (NTRK2, Homo sapiens, UniProt Q16620); kinase binding, KINOMEscan; baseline: DMSO control: 74%
cGMP-dependent protein kinase 2 (PRKG2, Homo sapiens, UniProt Q13237); binding, competition with immobilised ligand: 85%
Receptor tyrosine-protein kinase erbB-3 (ERBB3, Homo sapiens, UniProt P21860); kinase binding, KINOMEscan; baseline: DMSO control: 77%
Casein kinase I isoform alpha (CSNK1A1, Homo sapiens, UniProt P48729); binding, competition with immobilised ligand: 66%
Serine/threonine-protein kinase MARK2 (MARK2, Homo sapiens, UniProt Q7KZI7); binding, competition with immobilised ligand: 84%
Glycogen synthase kinase-3 beta (GSK3B, Homo sapiens, UniProt P49841); kinase binding, KINOMEscan; baseline: DMSO control: 0.5%
Insulin-like growth factor 1 receptor (IGF1R, Homo sapiens, UniProt P08069); kinase binding, KINOMEscan; baseline: DMSO control: 86%
High affinity nerve growth factor receptor (NTRK1, Homo sapiens, UniProt P04629); kinase binding, KINOMEscan; baseline: DMSO control: 64%
Non-receptor tyrosine-protein kinase TYK2, JH1 (TYK2, Homo sapiens, UniProt P29597); binding, competition with immobilised ligand: 66%
